Measured values collected from several papers.
Every numbered part comes from another study and shows a few of its results, in no order. Values joined by “and” are separate records of one study, mostly repeats; a detail may differ. Positions count from the first letter of the parent shown.
UniProt P0C1S8, sequence (whole entry, looked up): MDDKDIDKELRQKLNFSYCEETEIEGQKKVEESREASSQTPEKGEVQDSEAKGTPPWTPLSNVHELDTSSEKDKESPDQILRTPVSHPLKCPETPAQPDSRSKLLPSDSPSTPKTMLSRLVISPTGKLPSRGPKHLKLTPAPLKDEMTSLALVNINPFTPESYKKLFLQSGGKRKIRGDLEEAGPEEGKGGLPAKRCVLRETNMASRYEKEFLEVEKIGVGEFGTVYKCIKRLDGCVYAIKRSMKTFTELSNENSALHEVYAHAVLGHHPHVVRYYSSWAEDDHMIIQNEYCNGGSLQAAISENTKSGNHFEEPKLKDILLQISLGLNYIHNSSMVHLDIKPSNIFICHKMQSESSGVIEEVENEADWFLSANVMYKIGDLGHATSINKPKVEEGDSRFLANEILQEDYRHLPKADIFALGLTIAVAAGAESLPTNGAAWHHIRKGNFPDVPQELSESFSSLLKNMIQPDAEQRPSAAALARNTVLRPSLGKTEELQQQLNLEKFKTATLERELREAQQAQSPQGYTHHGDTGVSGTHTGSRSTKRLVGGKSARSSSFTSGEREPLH
UniProt P51451, sequence (whole entry, looked up): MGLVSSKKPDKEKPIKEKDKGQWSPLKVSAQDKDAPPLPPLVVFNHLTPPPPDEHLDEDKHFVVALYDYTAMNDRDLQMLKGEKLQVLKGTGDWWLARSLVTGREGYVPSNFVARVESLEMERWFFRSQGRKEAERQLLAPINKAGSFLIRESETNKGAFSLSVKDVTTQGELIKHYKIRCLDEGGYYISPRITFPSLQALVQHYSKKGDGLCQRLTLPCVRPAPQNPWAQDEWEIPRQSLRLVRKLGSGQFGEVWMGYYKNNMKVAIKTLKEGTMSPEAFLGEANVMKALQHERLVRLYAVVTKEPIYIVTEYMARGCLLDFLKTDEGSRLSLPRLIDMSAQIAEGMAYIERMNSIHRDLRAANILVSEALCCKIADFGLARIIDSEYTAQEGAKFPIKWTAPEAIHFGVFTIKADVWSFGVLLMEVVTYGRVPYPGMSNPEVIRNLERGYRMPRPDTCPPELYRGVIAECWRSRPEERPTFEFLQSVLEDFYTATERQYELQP
UniProt P23458, sequence (whole entry, looked up): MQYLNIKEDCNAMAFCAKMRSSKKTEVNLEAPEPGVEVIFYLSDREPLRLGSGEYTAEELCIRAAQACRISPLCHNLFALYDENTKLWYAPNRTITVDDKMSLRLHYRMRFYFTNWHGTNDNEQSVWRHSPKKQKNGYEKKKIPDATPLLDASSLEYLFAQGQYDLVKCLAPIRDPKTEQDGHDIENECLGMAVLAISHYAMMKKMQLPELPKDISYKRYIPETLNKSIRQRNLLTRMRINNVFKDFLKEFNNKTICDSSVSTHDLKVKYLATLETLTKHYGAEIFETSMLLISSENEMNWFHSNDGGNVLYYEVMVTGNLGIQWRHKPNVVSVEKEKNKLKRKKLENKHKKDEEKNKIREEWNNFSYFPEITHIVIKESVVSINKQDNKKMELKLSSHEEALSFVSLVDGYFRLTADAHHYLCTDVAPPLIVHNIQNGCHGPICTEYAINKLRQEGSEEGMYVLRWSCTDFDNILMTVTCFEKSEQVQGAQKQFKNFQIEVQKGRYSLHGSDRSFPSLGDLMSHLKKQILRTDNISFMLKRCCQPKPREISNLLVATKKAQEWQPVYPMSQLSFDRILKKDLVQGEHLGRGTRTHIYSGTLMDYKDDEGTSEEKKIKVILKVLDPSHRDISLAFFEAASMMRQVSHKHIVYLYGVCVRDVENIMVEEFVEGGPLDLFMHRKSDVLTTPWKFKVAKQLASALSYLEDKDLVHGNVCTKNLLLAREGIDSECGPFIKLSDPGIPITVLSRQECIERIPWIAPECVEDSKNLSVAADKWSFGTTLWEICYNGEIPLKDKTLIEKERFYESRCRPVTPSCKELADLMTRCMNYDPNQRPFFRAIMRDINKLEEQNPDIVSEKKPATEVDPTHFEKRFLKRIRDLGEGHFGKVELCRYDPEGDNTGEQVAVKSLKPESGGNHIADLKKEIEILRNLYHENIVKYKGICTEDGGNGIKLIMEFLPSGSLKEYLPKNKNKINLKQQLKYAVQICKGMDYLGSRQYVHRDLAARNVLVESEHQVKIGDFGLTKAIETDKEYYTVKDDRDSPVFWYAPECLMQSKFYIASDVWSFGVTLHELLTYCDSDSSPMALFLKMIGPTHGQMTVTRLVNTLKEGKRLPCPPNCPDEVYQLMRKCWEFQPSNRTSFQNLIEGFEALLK
UniProt P00519, sequence (whole entry, unmodified, looked up): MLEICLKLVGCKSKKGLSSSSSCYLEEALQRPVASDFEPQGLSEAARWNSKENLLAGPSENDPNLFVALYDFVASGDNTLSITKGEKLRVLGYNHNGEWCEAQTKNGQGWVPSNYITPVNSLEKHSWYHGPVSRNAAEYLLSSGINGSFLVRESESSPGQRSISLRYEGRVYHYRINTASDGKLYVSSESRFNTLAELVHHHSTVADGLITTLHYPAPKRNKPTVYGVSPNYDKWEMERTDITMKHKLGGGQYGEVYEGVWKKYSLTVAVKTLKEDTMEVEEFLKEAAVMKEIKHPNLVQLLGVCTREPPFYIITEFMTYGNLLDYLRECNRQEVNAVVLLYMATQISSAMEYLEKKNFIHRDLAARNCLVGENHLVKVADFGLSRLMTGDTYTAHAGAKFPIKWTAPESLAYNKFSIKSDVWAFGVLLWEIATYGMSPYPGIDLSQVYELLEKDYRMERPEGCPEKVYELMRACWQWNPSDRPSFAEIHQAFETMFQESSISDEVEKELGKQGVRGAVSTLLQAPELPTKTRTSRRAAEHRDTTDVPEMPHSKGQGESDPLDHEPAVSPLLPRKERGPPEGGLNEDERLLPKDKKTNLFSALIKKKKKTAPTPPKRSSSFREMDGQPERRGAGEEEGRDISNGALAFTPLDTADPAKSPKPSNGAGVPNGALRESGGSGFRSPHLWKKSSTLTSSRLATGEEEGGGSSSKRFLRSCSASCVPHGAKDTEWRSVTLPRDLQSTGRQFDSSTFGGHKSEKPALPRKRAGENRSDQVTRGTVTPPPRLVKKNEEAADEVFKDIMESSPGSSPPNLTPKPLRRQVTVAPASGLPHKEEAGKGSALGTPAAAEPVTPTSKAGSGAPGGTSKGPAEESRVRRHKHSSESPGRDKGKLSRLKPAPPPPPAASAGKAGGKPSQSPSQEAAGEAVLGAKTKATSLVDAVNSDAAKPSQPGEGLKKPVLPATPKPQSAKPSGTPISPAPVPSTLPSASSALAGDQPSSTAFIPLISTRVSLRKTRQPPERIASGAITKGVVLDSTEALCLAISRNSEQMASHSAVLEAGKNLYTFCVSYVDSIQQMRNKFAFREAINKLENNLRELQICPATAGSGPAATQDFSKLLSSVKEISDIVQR
UniProt Q96J92, sequence (whole entry, looked up): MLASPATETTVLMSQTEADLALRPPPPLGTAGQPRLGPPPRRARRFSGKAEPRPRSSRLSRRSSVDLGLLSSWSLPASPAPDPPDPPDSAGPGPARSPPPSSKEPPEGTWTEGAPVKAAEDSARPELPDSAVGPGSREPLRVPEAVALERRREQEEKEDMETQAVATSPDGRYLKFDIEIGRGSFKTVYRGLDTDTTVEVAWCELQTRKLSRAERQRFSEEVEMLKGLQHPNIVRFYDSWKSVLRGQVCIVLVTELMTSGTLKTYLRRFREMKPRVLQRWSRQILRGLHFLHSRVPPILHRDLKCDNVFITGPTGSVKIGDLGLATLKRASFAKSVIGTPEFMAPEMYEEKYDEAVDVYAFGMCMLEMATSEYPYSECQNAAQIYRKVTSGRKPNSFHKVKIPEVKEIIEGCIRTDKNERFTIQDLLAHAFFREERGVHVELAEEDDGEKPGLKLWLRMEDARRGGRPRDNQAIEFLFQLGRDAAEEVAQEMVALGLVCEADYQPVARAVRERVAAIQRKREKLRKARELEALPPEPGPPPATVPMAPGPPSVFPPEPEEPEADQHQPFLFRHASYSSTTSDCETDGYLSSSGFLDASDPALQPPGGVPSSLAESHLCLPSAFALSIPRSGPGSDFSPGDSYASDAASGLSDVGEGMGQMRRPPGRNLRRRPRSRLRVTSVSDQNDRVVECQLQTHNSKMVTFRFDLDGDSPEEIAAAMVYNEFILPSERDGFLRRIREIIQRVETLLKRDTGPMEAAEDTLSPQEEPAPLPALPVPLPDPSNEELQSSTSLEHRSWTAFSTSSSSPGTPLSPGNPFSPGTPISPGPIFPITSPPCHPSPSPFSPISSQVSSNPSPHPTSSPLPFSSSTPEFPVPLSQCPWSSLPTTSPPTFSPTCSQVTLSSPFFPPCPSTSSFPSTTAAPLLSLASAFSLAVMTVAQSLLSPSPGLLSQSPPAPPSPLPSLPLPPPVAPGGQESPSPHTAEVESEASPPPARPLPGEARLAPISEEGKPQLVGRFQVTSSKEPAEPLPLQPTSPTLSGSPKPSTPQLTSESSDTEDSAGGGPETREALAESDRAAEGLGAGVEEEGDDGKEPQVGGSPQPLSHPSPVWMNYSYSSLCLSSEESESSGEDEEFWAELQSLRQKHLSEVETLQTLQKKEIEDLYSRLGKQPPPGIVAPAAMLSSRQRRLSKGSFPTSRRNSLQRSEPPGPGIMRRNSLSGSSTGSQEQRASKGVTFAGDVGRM
UniProt P53778, sequence (whole entry, looked up): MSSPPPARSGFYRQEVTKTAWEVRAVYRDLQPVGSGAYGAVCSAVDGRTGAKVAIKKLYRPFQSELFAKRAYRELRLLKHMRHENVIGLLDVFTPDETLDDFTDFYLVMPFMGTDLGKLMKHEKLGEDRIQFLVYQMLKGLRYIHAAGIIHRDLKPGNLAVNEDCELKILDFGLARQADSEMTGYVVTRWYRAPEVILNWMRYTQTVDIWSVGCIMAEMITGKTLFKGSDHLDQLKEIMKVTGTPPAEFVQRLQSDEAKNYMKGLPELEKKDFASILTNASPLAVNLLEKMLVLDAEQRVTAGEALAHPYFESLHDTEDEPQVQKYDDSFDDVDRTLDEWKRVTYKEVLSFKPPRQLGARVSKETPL

Block 1
Target: HLA class I histocompatibility antigen, C alpha chain, allele C*04:01 (Homo sapiens, UniProt P10321)
Read-out: peptide-MHC binding
Molecule type: peptide
Tested at: concentration not given
Measurement: binding
LFPELDCFF: inactive
FLRKNQRAL: inactive
LVTMGTGTFGR: inactive
FVAATGRPL: inactive
RARRHLAAL: inactive
MPAIFFSIV: inactive
SARRRHLVF: inactive
FLLPILSQIYT: inactive

Block 2
SMILES: Cn1cncc1[C@@](O)(COc1ccc(C#N)cc1-c1ccc(OC(F)(F)F)cc1)c1ccc(C#N)cc1
Read-out: cell-free assay
Technique: competition with immobilised ligand
Tested at: 1 µM
Measurement: remaining binding
LCK (Homo sapiens, UniProt P06239): 100%
FLT3 (Homo sapiens, UniProt P36888, D835V/ITD): 80%
MAPK12 (Homo sapiens, UniProt P53778): 100%
FLT3 (Homo sapiens, UniProt P36888): 100%
WEE2 (Homo sapiens, UniProt P0C1S8): 100%
Tyrosine-protein kinase JAK1, JH1 (JAK1, Homo sapiens, UniProt P23458): 100%
Tyrosine-protein kinase ABL1, non-phosphorylated (ABL1, Homo sapiens, UniProt P00519, F317L): 100%
BLK (Homo sapiens, UniProt P51451): 71%
WNK4 (Homo sapiens, UniProt Q96J92): 85%

Block 3
Target: CCNA1, cyclin fold, Cln2 fusion (human)
Technique: yeast growth competition, sequencing
Matrix: yeast
Notes: weak parent motif
Baseline: not given
Reading: higher = stronger binding
Measurement: normalised enrichment score
Starting sequence: viral docking peptide; KGVKRKLFAEDSS; partner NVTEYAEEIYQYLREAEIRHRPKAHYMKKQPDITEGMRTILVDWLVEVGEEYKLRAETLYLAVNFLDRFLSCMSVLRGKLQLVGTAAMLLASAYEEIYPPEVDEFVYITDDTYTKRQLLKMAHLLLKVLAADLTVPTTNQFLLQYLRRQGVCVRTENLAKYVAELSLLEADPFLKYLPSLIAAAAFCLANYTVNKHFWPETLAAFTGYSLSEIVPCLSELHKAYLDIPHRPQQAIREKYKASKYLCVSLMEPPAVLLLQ
KGVKRKLFREDSS [A9R]: 1.18
KGVKKKLFAEDSS [R5K]: 0.679
KSVKRKLFAEDSS [G2S]: 1.2
KLVKRKLFAEDSS [G2L]: 0.799
KGVKRKLFAEASS [D11A]: 1
KGAKRKLFAEDSS [V3A]: 0.967
KGVKRKLFAEDWS [S12W]: 0.877
KGVKRKLFAEDES [S12E]: 1.44

Mixed results
CC(C)S(=O)(=O)c1ccc2nccc(Nc3ccc4scnc4c3)c2c1  viability (L929; necroptosis protection, CCK-8; 0.078 µM, together with: TNF-α plus zVAD): 13%
CC[C@H](C)c1nc2cc(Nc3ccnc4ccc(S(=O)(=O)C(C)C)cc34)ccc2s1.Cl  viability (HT-29; necroptosis protection, CCK-8; 0.625 µM, together with: TNF-α SMAC mimetic zVAD): 14% and 19.8% and 13% and 25.4%
CC(C)S(=O)(=O)c1cc2c(Nc3ccc4sc(C5CCCC5)nc4c3)ccnc2cc1OCCO  viability (L929 RIPK3 knockout; 6.25 µM, together with: zVAD): 87.3% and 95.6% and 87.5% and 97.1%
CC(C)S(=O)(=O)c1ccc2nccc(Nc3ccc4sc(C5CCCC5)nc4c3)c2c1  viability (L929; necroptosis protection, CCK-8; 0.078 µM, together with: TNF-α plus zVAD): 26%

A few entries again (block 2):
LCK (Homo sapiens, UniProt P06239): 100%
FLT3 (Homo sapiens, UniProt P36888, D835V/ITD): 80%
WEE2 (Homo sapiens, UniProt P0C1S8): 100%
Tyrosine-protein kinase JAK1, JH1 (JAK1, Homo sapiens, UniProt P23458): 100%
Tyrosine-protein kinase ABL1, non-phosphorylated (ABL1, Homo sapiens, UniProt P00519, F317L): 100%
